Published values gathered from unrelated publications.
Parts stem from different laboratories: compare values within a part only.

Sample 1 — technique: RNA Bind-n-Seq; molecule type: RNA; sample: in vitro; tested at: 1 µM; setting: whole 134-nt RNA, ends assumed; with: 150 mM KCl; reference: input library; reading: higher = stronger binding
Target: Ras GTPase-activating protein-binding protein 1, C-terminal RGG region (G3BP1, Homo sapiens, UniProt Q13283)
Sequence of UniProt Q13283 (whole entry, looked up): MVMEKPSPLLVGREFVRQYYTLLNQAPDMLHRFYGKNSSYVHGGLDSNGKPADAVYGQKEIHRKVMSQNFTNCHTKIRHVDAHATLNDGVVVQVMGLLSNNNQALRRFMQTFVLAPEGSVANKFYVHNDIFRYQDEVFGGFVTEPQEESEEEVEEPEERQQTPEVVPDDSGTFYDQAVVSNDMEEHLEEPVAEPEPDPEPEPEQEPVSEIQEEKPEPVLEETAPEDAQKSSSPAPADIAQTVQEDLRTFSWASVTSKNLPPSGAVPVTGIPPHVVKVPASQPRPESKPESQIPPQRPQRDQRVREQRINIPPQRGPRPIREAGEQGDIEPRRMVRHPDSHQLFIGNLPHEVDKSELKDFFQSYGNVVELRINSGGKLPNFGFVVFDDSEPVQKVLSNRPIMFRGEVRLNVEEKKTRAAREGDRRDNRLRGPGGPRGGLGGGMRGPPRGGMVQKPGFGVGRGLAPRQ
`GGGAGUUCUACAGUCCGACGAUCCAAGUCCUGUGCUACACAUCGUAUGUACCGAAUCGGGCCCCGGGCCCCGGCCCCGGAAAGUAUUAUGUUACGCCGUUCGGAUCUGCACUUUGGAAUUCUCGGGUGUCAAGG` gave a log2 enrichment of -1.99.
With `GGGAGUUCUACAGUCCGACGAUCCCUCAAGUCCUGUGCUACACAUCGUAUGUACCGAAUCGGUUGGUUGGUUGGGGAAAGUAUUAUGUUACGCCGUUCGGAUCUGCACUUCCAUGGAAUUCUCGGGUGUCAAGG` the log2 enrichment was -1.06.
For `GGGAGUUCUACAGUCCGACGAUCACCAUGCAGGUGGGCAUCUUUGGGAAGUGGGGCAAGGGGGGGAUAGGGAGGGGGGUAACACUUUAAAAACAGGUGGUCCCAGGUCGUUUCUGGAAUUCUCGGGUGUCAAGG`, the log2 enrichment was -1.
`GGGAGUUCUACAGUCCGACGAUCCUCAAGUCCUGUGCUACACAUCGUAUGUACCGAAUCGGGUGGGAGGGAAAGGGAAAGUAUUAUGUUACGCCGUUCGGAUCUGCACUUCCAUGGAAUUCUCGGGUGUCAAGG` has a log2 enrichment of 1.65.
With `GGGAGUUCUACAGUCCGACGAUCAAGUCCUGUGCUACACAUCGUAUGUACCGAAUCGGGAGGGAAAAAAAGGGAAAGGGAAAGUAUUAUGUUACGCCGUUCGGAUCUGCACUUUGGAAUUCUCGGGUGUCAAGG` the log2 enrichment was 0.474.
`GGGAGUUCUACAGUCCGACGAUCCACAGACAACACGCACCCACACAGACACAGAGGGAAGGGGUUGGGAUGGGGACAGGGUGCACAGCAGGGCGGGGUAGGACCCCUGCCCCUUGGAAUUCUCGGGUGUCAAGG` gave a log2 enrichment of -1.01.
`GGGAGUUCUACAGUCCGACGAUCGAAAAUUUCUCAGUUCUUAAGAAUGCUUGCUGUGGGUAUAGUGCAGGUAUAUUGAAAGGAAUUUUUUUCUUGCAGCGGGAAAGAGACAUGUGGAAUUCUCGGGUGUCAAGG` has a log2 enrichment of -1.61.
For `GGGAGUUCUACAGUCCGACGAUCAGUCCUGUGCUACACAUCGUAUGUACCGAAUCGGGGAAAAAGGAAAAAGGGAAAAAGGAAAGUAUUAUGUUACGCCGUUCGGAUCUGCACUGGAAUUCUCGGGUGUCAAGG`, the log2 enrichment was -1.72.
`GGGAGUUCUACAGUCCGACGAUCCAAGUCCUGUGCUACACAUCGUAUGUACCGAAUCGGAAAGGAAAAAAAGGAAAGGAAAGUAUUAUGUUACGCCGUUCGGAUCUGCACUUCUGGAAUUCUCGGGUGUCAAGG` gave a log2 enrichment of -2.
`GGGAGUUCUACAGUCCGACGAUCGUCCUGUGCUACACAUCGUAUGUACCGAAUCGGGUUUGGGAAAAAGGGAAAAAAAGGGAAAGUAUUAUGUUACGCCGUUCGGAUCUGCACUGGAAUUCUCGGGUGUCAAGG` has a log2 enrichment of -0.04.

Sample 2 — technique: RNA Bind-n-Seq; molecule type: RNA; sample: in vitro; tested at: 365 nM; reference: no-protein control; reading: higher = stronger binding
Target: RNA binding protein fox-1 homolog 2, RRM domain, GST-SBP tag (RBFOX2, Homo sapiens, UniProt O43251-10, residues 100-194)
Setting: natural RNA segment, single round, ends assumed
Residues (chain): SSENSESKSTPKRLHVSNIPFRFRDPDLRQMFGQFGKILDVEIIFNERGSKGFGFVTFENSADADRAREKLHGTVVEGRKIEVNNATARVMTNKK
Under “RBNS enrichment (R)”, `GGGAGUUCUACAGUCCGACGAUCUGGAUGGCCUGAAGAAGCUGUUCUCCAGCCACAACAACCACAGAAAGCCCCUCGCUCUCCCCUCUCUGUUUUCCCAUUAAUCAAAGCCAUGUCUAGAAUGGGCCAGCCACUGGAAUUCUCGGGUGCCAA` is recorded as 0.53.
For `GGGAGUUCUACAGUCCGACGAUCAGGUCAGCGUUAUCCUGCCAGACAUCUGGGUCAGGAACUUGGGAGACAACAUCUGCUUACCUGGCAGAACUCCCCACUCCACUCCCCCAGGUGGGCUGGGUGGAAGGACCUGGAAUUCUCGGGUGCCAA`, “RBNS enrichment (R)” read 0.303.
`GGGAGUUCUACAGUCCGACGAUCUUAUCUUUUGGGUCUGUCCUCUCUGUUGCCUUUUUACAGCCAACUUUUCUAGACCUGUUUUGCUUUUGUAACUUGAAGAUAUUUAUUCUGGGUUUUGUAGCAUUUUUAUUUGGAAUUCUCGGGUGCCAA`: “RBNS enrichment (R)” 1.38.
For `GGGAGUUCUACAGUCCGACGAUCUGUACUUUCCAAACAAAUGAUACAACCCUGACCAAGCUAAAAGACGCUUGUUAAAGGCUAUUUUCUAUAUUUAUUGUUGGGAAAAGUCACUUUAAAGACUUGUGCUAUUUUGGAAUUCUCGGGUGCCAA`, “RBNS enrichment (R)” read 0.447.
`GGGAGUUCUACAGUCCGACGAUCAUGUGAUGGAAAGACUUUUUGUUUUCCUUUCCCAAAGAAAUAAAACGGAAAAAGCCUCUUGAGUGGUUUCUUUGGCCUGCUUGUGUCUUUGCAGGUGCGGGAGGUGAGGCUGGAAUUCUCGGGUGCCAA` — result for “RBNS enrichment (R)”: 0.769.
`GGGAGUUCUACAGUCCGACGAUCAGUUUGUGAUAAUUGCUCCAGUUCUACAAACAACAGAAUUUUAAAUAGAGGAAGUGGAUAAAGGAGACACCUCCCUUGCUGUGUGCUCUUUGAAAGUAAUUGACAGAAAAUGGAAUUCUCGGGUGCCAA` — result for “RBNS enrichment (R)”: 0.656.
Under “RBNS enrichment (R)”, `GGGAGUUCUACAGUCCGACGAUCGGACACACUGCAGGAGUUCCUGAAGCUGGCCUGAGUCAGGAUGGCCACCGAUCCUAUCCAGCUAGCUCUUCACCAGGCCUUGUAACCAACUCCUUGUCGUCCUAAUCUGCUGGAAUUCUCGGGUGCCAA` is recorded as 0.296.
For `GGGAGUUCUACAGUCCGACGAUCAUGCUCGAAAGUCAGUGAAAGCUAUGCCUUCUCAUGCUAGCCCAGCCCAGCCCACCCUGCGACUGGUUCUUGGUUUAAUAAACACAUGUAAGAGUUCUUUCCACCACUGAUGGAAUUCUCGGGUGCCAA`, “RBNS enrichment (R)” read 0.311.
Under “RBNS enrichment (R)”, `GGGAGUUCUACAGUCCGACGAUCAUAUAUACCUUGGAGUCCCAUACACUUAGGAAACUCCAAGGAGACACGUCCUGCUCAUCCCCGCCCCCACCCAAAGUAAAAACACAAUACUGAAUAAACGUGGCUUGAGUUGGAAUUCUCGGGUGCCAA` is recorded as 0.347.
`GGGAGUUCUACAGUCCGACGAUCAAUAAAUAAAAGUUAUAUCAGACAGUACUGACAGACAAUAAAGAAACCCCCCCCCCAGGGUGCCCAGGUUAAGUCCCAUGUUCUGUGCUCCUGUUUGGUUUUGGGAGGCAUGGAAUUCUCGGGUGCCAA`: “RBNS enrichment (R)” 1.2.

Sample 3 — technique: protein-binding microarray; molecule type: double-stranded DNA, one strand shown; sample: in vitro; tested at: not given; reading: higher = stronger binding
Target: Protein C-ets-1 (ETS1, Homo sapiens, UniProt P14921, residues 1-441, full length assumed)
Setting: k-mer, scored over probes, only values ≥0.25
Target sequence (chain): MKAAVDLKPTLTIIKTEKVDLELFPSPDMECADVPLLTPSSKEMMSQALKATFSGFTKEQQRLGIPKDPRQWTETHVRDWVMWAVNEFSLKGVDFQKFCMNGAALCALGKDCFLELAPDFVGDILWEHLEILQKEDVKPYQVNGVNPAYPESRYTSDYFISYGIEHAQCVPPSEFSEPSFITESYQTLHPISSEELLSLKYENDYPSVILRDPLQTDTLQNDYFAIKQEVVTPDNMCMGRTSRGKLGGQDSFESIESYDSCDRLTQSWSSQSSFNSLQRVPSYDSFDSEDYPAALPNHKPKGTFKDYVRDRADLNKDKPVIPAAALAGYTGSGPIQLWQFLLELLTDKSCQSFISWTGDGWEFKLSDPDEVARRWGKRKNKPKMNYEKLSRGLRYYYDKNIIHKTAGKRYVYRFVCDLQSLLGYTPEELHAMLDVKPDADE
`CGGAAAAA` has an E-score of 0.373.
The E-score of `TCCTTCCA` is reported as 0.291.
`AAACATCC` gave an E-score of 0.447.
The E-score of `ACCGGTAC` is reported as 0.321.
`CGGAATCA` gave an E-score of 0.253.
With `ACTTCCAC` the E-score was 0.4.
`ATTGATCC` gave an E-score of 0.274.
With `CCGGACCC` the E-score was 0.257.
`AGCAGGAA` gave an E-score of 0.433.

Single results of other studies
`PhoQ, residues 284 288 289 292 302 303 SSTLLI` has a fold induction of 5.47 (PhoP, residues 12 14 15 18 19 VQALL (Escherichia coli, UniProt P23836); Sort-seq, refers to: YFP reporter; E. coli; PhoQ-PhoP variant library, with: 10 µM Mg2+; reference: high Mg2+ state, higher = stronger signaling).

Excerpt of the above (sample 3):
`ATTGATCC` gave an E-score of 0.274.
With `ACTTCCAC` the E-score was 0.4.
